Published values gathered from unrelated publications.
Compare with care: the assays were run in different laboratories. “And” joins repeats or separate records; there may be more than shown. pEC50, pIC50: −log10 of the molar value.
Organism: Leishmania donovani

| SMILES | assay | test system | setting | how to read | quantity | result |
| --- | --- | --- | --- | --- | --- | --- |
| N=C(N)NCCC[C@H](NC(=O)[C@H](CCCNC(=N)N)NC(=O)[C@H](CCCNC(=N)N)NC(=O)[C@H](CCC(N)=O)NC(=O)[C@H](CCCNC(=N)N)NC(=O)[C@H](CCCNC(=N)N)NC(=O)[C@H](CCCCN)NC(=O)[C@H](CCCCN)NC(=O)[C@H](CCCNC(=N)N)NC(=O)CNC(=O)[C@H](Cc1ccc(O)cc1)NC(=O)CNC(=O)CNC(=O)[C@@H]1CCCCNC(=O)CCC(=O)N[C@@H](CCCNC(=N)N)C(=O)N[C@@H](CC(N)=O)C(=O)NCC(=O)N[C@@H](CCC(N)=O)C(=O)N[C@@H](CS)C(=O)N[C@@H](CCC(N)=O)C(=O)N[C@@H](CCCNC(=N)N)C(=O)N[C@@H](CCCCN)C(=O)N1)C(N)=O | Alamar blue | promastigote | 100 µM, 48 h | relative to: control | viability | ~5% |
| [Cl-].[Cl-].[Mn+2].c1ccc(CN2CCNCCN(Cc3ccccc3)CCNCC2)cc1 | parasite growth | THP-1 macrophages | intracellular amastigotes | – | IC90 | 2.4 µM |
| O=C(NCCNCCO)c1cn(Cc2ccccc2)c2cc(Cl)c(OCc3ccc(Cl)cc3)cc2c1=O | – | Bob promastigotes | 120 h | – | pIC50 | < 4.70 |
| [Cl-].[Cl-].[Mn+2].c1ccc(CN2CCCNCCN(Cc3ccccc3)CCCNCC2)cc1 | parasite growth, resazurin | – | 72 h, promastigote | – | pIC50 | 5.18 |
| O=C(NCCNCCO)c1cn(Cc2ccccc2)c2cc(OCc3ccc(C(F)(F)F)cc3)c(Cl)cc2c1=O | – | Bob promastigotes | 120 h | – | pIC50 | > 5.52 |
| O=S(=O)(CCC(F)(F)F)N[C@H]1CC[C@H](Nc2ncc3c(-c4ccccn4)n[nH]c3n2)CC1 | parasite growth | – | promastigote | – | pEC50 | 7.10 |
| CC1N=C(CCCCCCCCCCC2=CC(CCCCCCCCCCC3=NC(C)C(O)CC3)C3CCCN3C2)CCC1O (stereo not drawn) | cell growth, inhibitor, Alamar Blue | axenic amastigotes | 72 h, 37 °C | – | IC50 | 1.8 µg/mL and 1.83 µg/mL |
| N=C(N)NCCC[C@H](NC(=O)[C@H](CCCNC(=N)N)NC(=O)[C@H](CCCNC(=N)N)NC(=O)[C@H](CCC(N)=O)NC(=O)[C@H](CCCNC(=N)N)NC(=O)[C@H](CCCNC(=N)N)NC(=O)[C@H](CCCCN)NC(=O)[C@H](CCCCN)NC(=O)[C@H](CCCNC(=N)N)NC(=O)CNC(=O)[C@H](Cc1ccc(O)cc1)NC(=O)CNC(=O)CNC(=O)[C@H](CCCCN)NC(=O)[C@H](CCCNC(=N)N)NC(=O)[C@H](CCC(N)=O)NC(=O)[C@H](CS)NC(=O)[C@H](CCC(N)=O)NC(=O)CNC(=O)[C@H](CC(N)=O)NC(=O)[C@@H](N)CCCNC(=N)N)C(N)=O | parasite growth, resazurin | – | 48 h, promastigote | – | pIC50 | ~4.40 |
| CC(=O)[O-].F[P-](F)(F)(F)(F)F.[Ni+2].c1ccc(CN2CCN3CCN(CC2)CCN(Cc2ccccc2)CC3)cc1 | – | THP-1-derived macrophages, intracellular amastigotes | – | – | pIC50 | < 4.70 |

Excerpt of the above:
| SMILES | assay | test system | setting | how to read | quantity | result |
| --- | --- | --- | --- | --- | --- | --- |
| O=C(NCCNCCO)c1cn(Cc2ccccc2)c2cc(OCc3ccc(C(F)(F)F)cc3)c(Cl)cc2c1=O | – | Bob promastigotes | 120 h | – | pIC50 | > 5.52 |
